Published values collected from several papers.
Each numbered part is a random draw from the data of one study; scales do not carry over between parts.

Block 1
Target: Ras GTPase-activating protein-binding protein 1, RRM domain (G3BP1, Homo sapiens, UniProt Q13283)
Chain of UniProt Q13283 (whole entry, looked up): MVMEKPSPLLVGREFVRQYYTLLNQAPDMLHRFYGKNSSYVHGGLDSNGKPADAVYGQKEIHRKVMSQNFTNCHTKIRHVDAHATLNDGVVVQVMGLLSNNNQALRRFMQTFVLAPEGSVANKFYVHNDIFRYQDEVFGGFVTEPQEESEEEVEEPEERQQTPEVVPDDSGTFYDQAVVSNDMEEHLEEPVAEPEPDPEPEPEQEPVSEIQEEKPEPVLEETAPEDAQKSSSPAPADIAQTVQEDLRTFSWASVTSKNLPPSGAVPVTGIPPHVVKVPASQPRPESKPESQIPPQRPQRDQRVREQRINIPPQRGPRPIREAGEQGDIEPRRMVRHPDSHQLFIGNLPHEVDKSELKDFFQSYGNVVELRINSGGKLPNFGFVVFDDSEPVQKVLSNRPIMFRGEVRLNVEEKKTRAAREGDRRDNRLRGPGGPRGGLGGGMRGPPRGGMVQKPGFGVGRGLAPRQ
Method: RNA Bind-n-Seq
Form: RNA
Matrix: in vitro
Tested at: 1 µM
Notes: whole 134-nt RNA, ends assumed
Added: 150 mM KCl
Reference: input library
Direction: higher = stronger binding
Endpoint: log2 enrichment
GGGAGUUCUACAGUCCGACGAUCUCCUCAAGUCCUGUGCUACACAUCGUAUGUACCGAAUCGGGGAGGAGGGAGGAAAGUAUUAUGUUACGCCGUUCGGAUCUGCACUUCCAGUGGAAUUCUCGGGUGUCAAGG: -0.241
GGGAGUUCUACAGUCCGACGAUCGUCCUGUGCUACACAUCGUAUGUACCGAAUCGGGGUUUGGGGUGGGGUUUUUUUGGGGAAAGUAUUAUGUUACGCCGUUCGGAUCUGCACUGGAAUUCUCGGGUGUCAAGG: 0.903
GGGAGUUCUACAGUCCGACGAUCUUUUACAACCCCAAUUUAAAGAAAGUUGUAGAGGCCCACAAGAUCGUUCUCUGCGCUGUAAGCCAUGUUUUCAUGCUGCUUUUCAAUGUGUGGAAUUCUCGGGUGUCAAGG: -0.248
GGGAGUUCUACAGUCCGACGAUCCCUCAAGUCCUGUGCUACACAUCGUAUGUACCGAAUCGGAGGAAAAAGGAGGAAAGUAUUAUGUUACGCCGUUCGGAUCUGCACUUCCAGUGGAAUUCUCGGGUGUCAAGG: -0.138
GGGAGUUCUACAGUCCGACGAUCCUCAAGUCCUGUGCUACACAUCGUAUGUACCGAAUCGGGGCGGCGGGGCGGGGAAAGUAUUAUGUUACGCCGUUCGGAUCUGCACUUCCAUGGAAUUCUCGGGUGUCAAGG: 0.115
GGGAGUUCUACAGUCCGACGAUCGUCCUGUGCUACACAUCGUAUGUACCGAAUCGGCCCCCCGGCCCCCCGGGCCCCCCGGGAAAGUAUUAUGUUACGCCGUUCGGAUCUGCAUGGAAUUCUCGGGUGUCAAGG: -0.445
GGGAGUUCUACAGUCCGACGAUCUCCUCAAGUCCUGUGCUACACAUCGUAUGUACCGAAUCGGAGGUGGUUUGGAAAGUAUUAUGUUACGCCGUUCGGAUCUGCACUUCCAGCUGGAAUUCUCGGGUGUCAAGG: -0.249
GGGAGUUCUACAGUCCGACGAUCAAGUCCUGUGCUACACAUCGUAUGUACCGAAUCGGGGAAAGGGGUGGGGUUUGGGGAAAGUAUUAUGUUACGCCGUUCGGAUCUGCACUUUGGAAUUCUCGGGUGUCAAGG: 0.687

Block 2
Target: RING finger protein unkempt homolog, zinc fingers 1-6, GST-SBP tag (UNK, Homo sapiens, UniProt Q9C0B0, residues 30-357)
Chain of UniProt Q9C0B0 (30-357, looked up): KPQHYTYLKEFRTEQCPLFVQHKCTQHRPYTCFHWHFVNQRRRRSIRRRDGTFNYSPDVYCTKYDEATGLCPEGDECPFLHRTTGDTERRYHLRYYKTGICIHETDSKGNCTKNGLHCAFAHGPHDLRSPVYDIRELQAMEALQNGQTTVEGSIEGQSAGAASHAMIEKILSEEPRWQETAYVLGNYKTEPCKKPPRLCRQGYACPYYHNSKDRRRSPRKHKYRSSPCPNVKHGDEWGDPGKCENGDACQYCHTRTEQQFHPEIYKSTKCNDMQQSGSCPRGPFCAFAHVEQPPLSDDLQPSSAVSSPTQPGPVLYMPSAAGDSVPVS
Method: RNA Bind-n-Seq
Form: RNA
Matrix: in vitro
Tested at: not given
Notes: RNA with constant flanks, human and mouse sites, ends assumed
Reference: input RNA pool
Direction: higher = stronger binding
Endpoint: bound/input enrichment
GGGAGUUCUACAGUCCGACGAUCUCCAGCCCCCACUUCCUCCUGGGCUCCAGUGUCCAGCCAGGGCCAGGGAAGGGAGCCACAGAGUUAACGUUUUUCUAACCUUGCUACUUGGAGGGAAGGGAAGGUUGGGGGAGAGGCCUGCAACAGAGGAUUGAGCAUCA: 0.136 ratio
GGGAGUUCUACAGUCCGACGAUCAUCAGCUGGACAGAGCAGAACUAUCCUCAAGGUGGGAAGGAGAGUAAUAUGUCAACGUUAUUAGAAAGAGCUGUAGAAGCACUACAAGGAGAAAAACGAUAUUAUAGUGAUCCUCGAUUUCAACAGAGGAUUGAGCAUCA: 0.933 ratio
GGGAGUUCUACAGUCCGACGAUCGUGCAGACUGCCUCAAAACAAGUUGAUGGUGAUUAUGUUGUGUCUGAAUGGAGUGAAAUUAUAGAAUUCUGCACCGCAGACUAUUCAAAAGUUCAUCUAACACAAUUGUUGGAGAAGGCUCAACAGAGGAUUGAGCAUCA: 0.197 ratio
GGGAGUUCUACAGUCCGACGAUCGCUCUGCCCCACCAUUCAUAUAUGGGCCUCAGCUCCCCCUAACUGUGGCCCUACAAAUCCCUAGGCCAGACCUCACAGCAGUGCCCACAGGCAUGCCUUGUUUAGCCCUCCUCAAGGAAUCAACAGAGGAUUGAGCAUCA: 0.346 ratio
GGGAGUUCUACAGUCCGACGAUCUUUUCAUUCAACCCCAUGCUGGAUAAAGAAGAAAGAGAGCAAGGCUGGGUGCUGAUCGAUCUUAGUGAAGAAUACACGCGGAUGGGCCUCCCUAAUCAUUACUGGCAGCUCAGCGAUGUGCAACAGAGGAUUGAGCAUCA: 0.17 ratio

Block 3
Target: Histone acetyltransferase KAT6A, both winged helices, GST fusion (KAT6A, Homo sapiens, UniProt Q92794, residues 1-181)
Method: protein binding microarray
Form: double-stranded DNA, one strand shown
Matrix: in vitro
Tested at: not given
Notes: 8-mer, flanks averaged, mean of 2 arrays, mostly near background
Reference: not given
Direction: higher = stronger binding
Endpoint: E-score
Residues (chain): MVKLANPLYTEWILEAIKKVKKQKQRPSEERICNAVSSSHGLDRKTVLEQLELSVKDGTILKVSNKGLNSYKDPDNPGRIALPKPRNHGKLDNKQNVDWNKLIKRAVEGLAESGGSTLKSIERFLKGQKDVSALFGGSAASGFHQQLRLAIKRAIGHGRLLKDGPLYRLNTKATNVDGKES
GATAGTAA: -0.112
CGTATTGA: 0.0456
ATATAAAA: -0.115
GCTTTCTA: 0.0519
CAGATAAC: -0.0381
GCTGGTAC: 0.0336

Single results of other studies
PhoQ, residues 284 288 289 292 302 303 SSLVEF  fold induction (PhoP, residues 12 14 15 18 19 STWGI (Escherichia coli, UniProt P23836); Sort-seq, refers to: YFP reporter; E. coli; PhoQ-PhoP variant library, added: 10 µM Mg2+; reference: high Mg2+ state, higher = stronger signaling): 1.66

For quick reference, copied from above (block 2):
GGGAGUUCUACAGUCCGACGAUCGUGCAGACUGCCUCAAAACAAGUUGAUGGUGAUUAUGUUGUGUCUGAAUGGAGUGAAAUUAUAGAAUUCUGCACCGCAGACUAUUCAAAAGUUCAUCUAACACAAUUGUUGGAGAAGGCUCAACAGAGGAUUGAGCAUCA: 0.197 ratio
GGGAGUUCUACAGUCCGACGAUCGCUCUGCCCCACCAUUCAUAUAUGGGCCUCAGCUCCCCCUAACUGUGGCCCUACAAAUCCCUAGGCCAGACCUCACAGCAGUGCCCACAGGCAUGCCUUGUUUAGCCCUCCUCAAGGAAUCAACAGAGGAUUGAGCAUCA: 0.346 ratio
